Measured values collected from several papers.
± gives the spread as reported.
Cell line: HepG2

SMILES | test | setting | how to read | quantity | result
O=c1c(O)c(-c2ccc(O)cc2)oc2cc(O)cc(O)c12 | Seahorse respirometry | concentration not given, 1 h, dosed at MMP IC50, together with: 1 µM FCCP | baseline: basal | OCR | 226.3 ± 1.29%
CC(=O)NC(C)(C)C(=O)N[C@@H](C)C(=O)NC(C)(C)C(=O)N[C@@H](C)C(=O)NC(C)(C)C(=O)N[C@@H](C)C(=O)N[C@@H](CCC(N)=O)C(=O)NC(C)(C)C(=O)N[C@@H](CC(C)C)C(=O)NC(C)(C)C(=O)NCC(=O)N[C@@H](CC(C)C)C(=O)NC(C)(C)C(=O)N1CCC[C@H]1C(=O)N[C@H](C(=O)NC(C)(C)C(=O)NC(C)(C)C(=O)N[C@@H](CCC(N)=O)C(=O)N[C@@H](CCC(N)=O)C(=O)N[C@H](CO)Cc1ccccc1)C(C)C | cytotoxicity, MTS | 48 h | – | EC50 | 5.77 ± 0.53 µM
COc1ccc2c(c1)c(CCN1CCOCC1)c(C)n2C(=O)c1cccc(Cl)c1Cl | phospholipidosis induction, inducer, high-content imaging | 24 h, confirmation screen | – | EC50 | 13 ± 6.9 µM
CC[C@@](C)(NC(=O)[C@@H]1CCCN1C(=O)C(C)(C)NC(=O)[C@@H](NC(=O)[C@H](C)NC(=O)[C@@H]1CCCN1C(=O)C(C)(C)NC(=O)[C@H](CC(C)C)NC(=O)[C@H](CCC(N)=O)NC(=O)C(C)(C)NC(C)=O)C(C)C)C(=O)N[C@@H](CC(C)C)C(=O)NC(C)(C)C(=O)N1CCC[C@H]1C(=O)N[C@H](CO)CC(C)C | cytotoxicity, MTS | 48 h | – | EC50 | > 25 µM
COc1cc(/C=C/C(O)=C/C(=O)/C=C/c2ccc(O)cc2)ccc1O | cell growth or viability, MTT | 48 h | – | IC50 | 18.1 µg/mL
CN(C)c1ccc(C(=C2C=CC(=[N+](C)C)C=C2)c2ccccc2)cc1 | cell growth or viability, LDH | – | – | IC50 | 63 µM
c1ccc2c(-c3cnn4cc(-c5ccc(N6CCNCC6)cc5)cnc34)ccnc2c1 | hepcidin mRNA expression, inhibitor, quantitative RT-PCR, measured: hepcidin mRNA | 90 min, together with: IL-6 100 ng/mL | – | IC50 | ~0.005 µM
CC(C)[C@H]1c2ccc(F)cc2CC[C@@]1(CCN(C)CCCc1nc2ccccc2[nH]1)OC(=O)C1CC1 | phospholipidosis induction, inducer, high-content imaging | 24 h, primary screen | – | EC50 | 5 µM
CC[C@@]1(O)C(=O)OCc2c1cc1n(c2=O)Cc2cc3ccccc3nc2-1 | cell growth or viability, MTT | 48 h | – | IC50 | 0.07 µM
CC(N)Cc1c[nH]c2ccc(OCc3cccs3)cc12 (centres unmarked) | cell viability, ATP content | 24 h | – | IC50 | 45.7 ± 14.6 µM
Cc1cc(O)c(C(C)(C)C)cc1Sc1cc(C(C)(C)C)c(O)cc1C | – | MMP IC50, 1 h, together with: FCCP 1 µM | baseline: basal OCR | maximal OCR | 167 ± 1.47%
CC(=O)NC(C)(C)C(=O)N[C@@H](C)C(=O)NC(C)(C)C(=O)N[C@@H](C)C(=O)NC(C)(C)C(=O)N[C@@H](C)C(=O)N[C@@H](CCC(N)=O)C(=O)NC(C)(C)C(=O)N[C@H](C(=O)NC(C)(C)C(=O)NCC(=O)N[C@@H](CC(C)C)C(=O)NC(C)(C)C(=O)N1CCC[C@H]1C(=O)N[C@H](C(=O)NC(C)(C)C(=O)NC(C)(C)C(=O)N[C@@H](CCC(N)=O)C(=O)N[C@@H](CCC(N)=O)C(=O)N[C@H](CO)Cc1ccccc1)C(C)C)C(C)C | cytotoxicity, MTS | 48 h | – | EC50 | 9.28 ± 0.84 µM
CN1CCN(C2Cc3ccccc3Sc3ccc(Cl)cc32)CC1 (centres unmarked) | phospholipidosis induction, inducer, high-content imaging | 24 h, confirmation screen | – | EC50 | 6.9 ± 0.5 µM
CCCCCCCCCc1ccc(O)cc1 | – | MMP IC50, 1 h, together with: FCCP 1 µM | baseline: basal OCR | maximal OCR | 212.6 ± 1.39%

Repeated from above:
SMILES | test | setting | how to read | quantity | result
CN1CCN(C2Cc3ccccc3Sc3ccc(Cl)cc32)CC1 (centres unmarked) | phospholipidosis induction, inducer, high-content imaging | 24 h, confirmation screen | – | EC50 | 6.9 ± 0.5 µM
CCCCCCCCCc1ccc(O)cc1 | – | MMP IC50, 1 h, together with: FCCP 1 µM | baseline: basal OCR | maximal OCR | 212.6 ± 1.39%
